Published values collected from several papers.
Every numbered part comes from another study and shows a few of its results, in no order.

Block 1
Target: Phosphate system positive regulatory protein PHO4, full length, GST-tagged (PHO4, Saccharomyces cerevisiae, UniProt P07270, residues 1-312)
Method: competition protein-binding microarray
Form: double-stranded DNA, one strand shown
Matrix: in vitro
Concentration: 2 µM
Setting: whole 60-bp probe, lowest competitor level
Together with: Cbf1 competitor, 0.05 µM
Reading: higher = stronger binding
Quantity: fluorescence intensity
Construct (chain): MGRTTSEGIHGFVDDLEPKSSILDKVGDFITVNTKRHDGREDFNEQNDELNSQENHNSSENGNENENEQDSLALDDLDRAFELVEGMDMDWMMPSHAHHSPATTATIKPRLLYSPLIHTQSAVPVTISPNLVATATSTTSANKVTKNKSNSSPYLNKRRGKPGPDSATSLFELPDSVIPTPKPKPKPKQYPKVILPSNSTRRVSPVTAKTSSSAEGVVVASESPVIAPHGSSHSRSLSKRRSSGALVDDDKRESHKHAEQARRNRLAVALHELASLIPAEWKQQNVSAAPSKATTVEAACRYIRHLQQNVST
TAATCAAGCTTTCGGCACGTGGTGAGCCAAGTTGTGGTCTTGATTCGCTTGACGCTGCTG: 19100 a.u.
TAACATGCAGTATCGCACGGCGGGCCGAAAGTCGGAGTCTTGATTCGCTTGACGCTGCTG: 5710 a.u.
AGGAGTTTCTCCGGCCATGTGCGGCTGGTTCTACTTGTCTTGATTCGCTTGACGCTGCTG: 9840 a.u.
AAACTTTGGCCTTAGCCCGTGGGTATGTTACCATTGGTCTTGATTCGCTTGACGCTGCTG: 8360 a.u.
CTTTCCCGATCTTGTCACAGAACTTTAGCACATTTGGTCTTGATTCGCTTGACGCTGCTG: 3820 a.u.
GTCTTGTCTCATTTTCACGTGTCGTTCCCCACTTCAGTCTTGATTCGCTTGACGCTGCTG: 12600 a.u.
CTTCTGTAAATTTGTCACTGTACTTGACGCGCCCCGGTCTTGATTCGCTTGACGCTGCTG: 3540 a.u.
ATATTGATGGATTGTCATGTGATAGATAATTTCGTTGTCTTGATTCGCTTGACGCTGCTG: 6530 a.u.

Block 2
Target: Fragile X messenger ribonucleoprotein 1, C-terminal low-complexity region (Fmr1, Mus musculus, UniProt P35922)
Method: RNA Bind-n-Seq
Form: RNA
Matrix: in vitro
Concentration: 200 nM
Setting: whole 134-nt RNA, ends assumed
Together with: 150 mM KCl
Reference: input library
Reading: higher = stronger binding
Quantity: log2 enrichment
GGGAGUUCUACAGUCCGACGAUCUCCUGUGCUACACAUCGUAUGUACCGAAUCGGGGUUUUUUGGUUUUUUGGGUUUUUUGGGAAAGUAUUAUGUUACGCCGUUCGGAUCUGCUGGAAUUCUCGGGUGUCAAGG: -0.0425
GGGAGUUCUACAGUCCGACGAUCCCUGUGCUACACAUCGUAUGUACCGAAUCGGGGAAAAAAAGGAAAAAAAGGAAAAAAAGGGAAAGUAUUAUGUUACGCCGUUCGGAUCUGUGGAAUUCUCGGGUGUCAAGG: -0.776
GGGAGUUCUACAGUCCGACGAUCGUCCUGUGCUACACAUCGUAUGUACCGAAUCGGUUUUUGGUUUUUUUGGAAAAAAAGGAAAGUAUUAUGUUACGCCGUUCGGAUCUGCACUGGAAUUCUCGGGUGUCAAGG: -0.853
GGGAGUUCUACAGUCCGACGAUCUUGGCUACAAUGCAGAGACACAGAAACUACUAUGCAAGAAUGGGGAAACGCUGCUAGGAGCCGUGAACUUCUUUGUCUCUAGCAUCAACAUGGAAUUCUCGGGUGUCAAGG: -0.657
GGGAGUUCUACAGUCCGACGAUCUGGCCCUGGUGGCAUGCGGGGAUGAAGAGGUGGCCUCAUGGAUCGUGGUGGUCCCGGUGGAAUGUUCAGAGGUGGCCGUGGUGGAGACAGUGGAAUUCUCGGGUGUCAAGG: 0.185
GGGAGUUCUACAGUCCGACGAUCUGGCCGUGGUGGCAUGCGGGGAGGAAGAGGUGGCCUCAUGGAUCGUGGUGGUCCCGGUGGAAUGUUCAGAGGUGGCCGUGGUGGAGACAGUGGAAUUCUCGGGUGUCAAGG: 0.349
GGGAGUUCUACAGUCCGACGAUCUAACUUUAGAGGAGGAUCUGAUGGAUAUGGCAGUGGACGUGGAUUUGGGGAUCGCUAUAAUGGGUAUGGAGGAGGACCUGGAGGUGGCAAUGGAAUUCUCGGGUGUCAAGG: 0.14
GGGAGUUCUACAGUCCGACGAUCUAGUCACCUACUGCCACCUUCGAAAAACACGGAGAGCACCUACCCAGAGGAGAAGGUAGAUUUGGAGUAAGCCGCCGUCGACAUAAUUCCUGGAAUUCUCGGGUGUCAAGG: 0.152
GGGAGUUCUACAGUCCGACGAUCGCAGGAAGUAAAAACAAAUGGAAAUGCUUCGGAUAGUGGCAGGGGUGGGGGUUGCUAAGGAAAGGGUGGGAUGGGAGAAAGUAAAGAGUUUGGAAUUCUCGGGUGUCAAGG: 0.302

Block 3
Target: Interferon regulatory factor 7, full length, phosphomimetic (IRF7, Homo sapiens, UniProt Q92985, residues 1-503, S101K/S471D/S472D/S475D/S476D/S477D/S483D/S484D/S487D)
Method: protein-binding microarray
Form: double-stranded DNA, one strand shown
Matrix: in vitro
Concentration: 250 nM
Setting: 60-bp whole probe
Together with: salmon DNA 0.4 mg/ml
Reference: random background probes
Reading: higher = stronger binding
Quantity: log fluorescence
Shared flanks, not repeated: GCCTAGCAC … GTCTTGATTCGCTTGACGCTGCTG
Residues (chain): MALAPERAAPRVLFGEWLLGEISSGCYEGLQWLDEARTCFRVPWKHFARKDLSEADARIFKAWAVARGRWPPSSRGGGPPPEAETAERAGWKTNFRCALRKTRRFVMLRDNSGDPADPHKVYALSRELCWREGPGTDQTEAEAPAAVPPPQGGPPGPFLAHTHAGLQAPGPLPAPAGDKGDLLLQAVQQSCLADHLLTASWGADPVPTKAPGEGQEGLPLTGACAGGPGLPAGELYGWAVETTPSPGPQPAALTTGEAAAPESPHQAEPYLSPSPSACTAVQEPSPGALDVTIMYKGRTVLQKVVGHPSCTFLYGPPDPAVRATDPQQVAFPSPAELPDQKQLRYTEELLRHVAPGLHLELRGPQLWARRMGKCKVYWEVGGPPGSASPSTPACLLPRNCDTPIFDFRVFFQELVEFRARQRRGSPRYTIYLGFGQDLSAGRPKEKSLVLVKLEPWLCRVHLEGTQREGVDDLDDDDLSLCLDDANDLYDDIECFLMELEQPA
GACGGACTGCTACTGCTGCCGTGCTAG: -0.864 z-score
TTAAGTTTCCTTTTCCTTTAGTGCTAG: 8.22 z-score
TCAGTTTTCCTTATTGCACTGTGCTAG: 2.13 z-score
CGTACTGTATCTAGCCTTGCGTGCTAG: 0.475 z-score
TTAGATTTCAGTTGCGATTAGTGCTAG: 1.71 z-score
TTAGGTTTCGTGACTGGGTTAGTGCTA: 2.19 z-score
TCAACACTAATTTTTACACTGTGCTAG: 0.279 z-score

Further values, each from its own experiment
PhoQ, residues 284 288 289 292 302 303 SSLVEF — fold induction (PhoP, residues 12 14 15 18 19 LHHSG (Escherichia coli, UniProt P23836); Sort-seq, measured: YFP reporter; E. coli; PhoQ-PhoP variant library, together with: 10 µM Mg2+; reference: high Mg2+ state, higher = stronger signaling): 27.4

Excerpt of the above (block 1):
TAACATGCAGTATCGCACGGCGGGCCGAAAGTCGGAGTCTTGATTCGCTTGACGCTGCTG: 5710 a.u.
AGGAGTTTCTCCGGCCATGTGCGGCTGGTTCTACTTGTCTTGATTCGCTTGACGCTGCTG: 9840 a.u.
